Measurements pooled from the literature.
± gives the spread as reported.

SMILES	test	system	conditions	scale	endpoint	value
COc1cnc2cccc(N3CCc4c(cc(Cn5ccnc5)cc4-c4cn(C)nc4C(F)(F)F)C3=O)c2c1		CD-1 male mice, plasma	oral	baseline: 50 over 10 mg/kg	dose-normalised AUC(0-last) ratio	2.6 fold
Cc1cc2c(cc1C1(c3ncc(C(=O)O)cn3)CC1)C(C)(C)CCC2(C)C		Sprague-Dawley rat, male	oral, 100 mg/kg, 6 h, sesame oil vehicle		blood triglycerides	229 ± 93 mg/dL
C=CC(=O)Nc1cc(Nc2nccc(-c3cn(C4CC4)c4ccccc34)n2)c(OC)cc1NC	radiolabelled metabolite profiling	human male, plasma	oral, 110 mg, 2 h		plasma concentration	26.7 ng/g
CC(C)(O)c1ncc([S@](N)(=O)=NC(=O)Nc2c3c(cc4c2CCC4)CCC3)s1		healthy humans	oral, dose not given, all study parts all active		number of TEAEs	206
NC[C@@H](C(=O)Nc1ccc(-c2cn[nH]c2)cc1)c1ccccc1	OECD 405, measured: Cornea	New Zealand White rabbit	topical, 0.1 %, 80 h, day 4	direction not given	ocular irritation score	0
CC(=O)N[C@H](CC(=O)O)C(=O)N[C@H](Cc1c[nH]c2ccccc12)C(=O)N[C@H](Cc1ccccc1)C(=O)N[C@H](CCCCN)C(=O)N[C@H](C)C(=O)N[C@H](Cc1ccccc1)C(=O)N[C@H](Cc1ccc(O)cc1)C(=O)N[C@H](CC(=O)O)C(=O)N[C@H](CCCCN)C(=O)N[C@@H](C(=O)N[C@H](C)C(=O)N[C@H](CCC(=O)O)C(=O)N[C@H](CCCCN)C(=O)N[C@H](Cc1ccccc1)C(=O)N[C@H](CCCCN)C(=O)N[C@H](CCC(=O)O)C(=O)N[C@H](C)C(=O)N[C@H](Cc1ccccc1)C(N)=O)C(C)C		statin-treated high-risk CHD men, plasma	oral, 500 mg daily, day 1, 0-2 h, mean, undetectable set to 0		Cmax	23.4 ng/mL
Cn1c(=O)oc2ccc(-c3ccc(CC(C#N)NC(=O)C4CNCCCO4)c(F)c3)cc21 (stereo not shown)		human	oral, 40 mg once daily, TEAE, multiple ascending dose		fibrinogen decreased incidence	11.1%
COC(=O)C(c1ccccc1Cl)N1CCC(SCC(=O)c2cccc(OC)c2)C(=CC(=O)O)C1 (mixture of isomers)	HPLC-MS/MS	feline citrate plasma	100 ng/mL, 72 h, -20 °C, storage stability		deviation from nominal	-16%
CC(C)NC(=O)N1CC=C(c2cc3c(Nc4ccc5scnc5c4)ncnc3s2)CC1		BALB/c mouse, plasma	oral, 10 mg/kg, 30 min		concentration	5.07 ng/mL
CCCC[C@H](NC(=O)CNC(=O)CNC(=O)CN1CCN(CC(=O)O)CCN(CC(=O)O)CCN(CC(=O)O)CC1)C(=O)N[C@H]1CC(=O)NCCCC[C@@H](C(N)=O)NC(=O)[C@H](Cc2c[nH]c3ccccc23)NC(=O)[C@H](CCCNC(=N)N)NC(=O)[C@@H](Cc2ccccc2)NC(=O)[C@H](Cc2c[nH]cn2)NC1=O [gallium-67 labelled]		female C57 mice, B16/F1 melanoma	intravenous, 0.037 MBq, 2 h	baseline: tumour over liver	tumour to tissue ratio	29.7
Cc1ccc(C(C)C)cc1.O=C(N=P(c1ccccc1)(c1ccccc1)c1ccccc1)c1ccccn1.[Cl-].[Cl-].[Ru+2]	ICP-MS, measured: ruthenium	NOD.CB17-Prkdc scid/J mouse, plasma	intraperitoneal, 5 mg/kg, after first dose		apparent volume of distribution	33.6 mL
COc1cc2c(cc1OC)CN(CCCCn1ccc3cc(OCC[18F])ccc31)C2		male ICR mice	intravenous, 280 kBq, 15 min post-injection		blood uptake	1.19 ± 0.09 %ID/g
C[C@H]1CO[C@@H]2Cn3cc(C(=O)NCc4ccc(F)cc4F)c(=O)c(O[C@@H]4O[C@H](C(=O)O)[C@@H](O)[C@H](O)[C@H]4O)c3C(=O)N12	LC-MS/MS	human, UGT1A1 wild-type, plasma	intramuscular, dose not given, 1 weeks after first injection		plasma concentration	63.1 ± 76.2 ng/mL
c1ccc(COc2cc3nc(c2)CNCCNCCNC3)cc1	pH-potentiometric titration		298 K, I 0.15 M NaCl		log K3 protonation constant	2.35
CCc1noc(CC)c1C(=O)O[C@H]1C(C)=C[C@]23C(=O)[C@@H](C=C(CO)[C@@H](O)[C@]12O)[C@H]1[C@@H](C[C@H]3C)C1(C)C		aqueous buffer	16 h, pH 7.4, room temperature		compound recovered	≥ 95%
Clc1ccc(C(c2c[nH]c3ccccc23)c2c[nH]c3ccccc23)cc1		C57BL/6 mouse, male, midbrain	oral, 25 mg/kg		half-life	~15 min
Cc1ccc(-c2ccc(-c3cc4sccc4o3)cn2)nc1	TCSPC	dioxane			radiative decay rate constant	0.53 ns⁻¹
CCC/C(=C\C1=C(F)C(=O)c2ccccc2C1=O)C(=O)N(CC)CC		mouse liver S9	1 µM, phase II UGT conditions		CLint	8.2 mL/min/kg
COc1ccc(-c2ccn(CC[C@](C)(C(=O)NO)S(C)(=O)=O)c(=O)c2)c(F)c1		CF-1 mouse, female	subcutaneous, 18.75 mg/kg		AUC	5090 ± 1040 ng·h/mL
O=C([O-])CN1CCN(CC(=O)[O-])CCN(CC(=O)NC[C@H]2CC[C@H](C(=O)N[C@H](Cc3cnc4ccccc4c3)C(=O)NCCCC[C@H](NC(=O)N[C@@H](CCC(=O)O)C(=O)O)C(=O)O)CC2)CCN(CC(=O)[O-])CC1.[64Cu+2]	PET/CT dosimetry OLINDA/EXM	healthy volunteers, testes	up to 24 h post-injection		absorbed dose	0.0172 mGy/MBq
O=C([O-])CN1CCN(CC(=O)[O-])CCN(CC(=O)NCC2CCC(C(=O)NC(Cc3ccc4ccccc4c3)C(=O)NCCCCC(NC(=O)NC(CCC(=O)O)C(=O)O)C(=O)O)CC2)CCN(CC(=O)[O-])CC1.[44Sc+3] (stereo not shown)	transmetallation stability		0.5 h, 37 °C, added: Mg2+ 10 mM		intact complex	98.7 ± 0.5%
NS(=O)(=O)c1ccc(N2N=C(C(F)(F)F)CC2c2ccc(F)cc2F)cc1 (stereo not shown)		Beagle dog, male, arthritis model, plasma	oral, 4 mg/kg single dose, day 0		plasma concentration	544 ± 327 ng/mL

SMILES	test	system	conditions	scale	endpoint	value
COc1ccc(S(=O)(=O)N/N=C/c2ccc(C#N)cc2)cc1OC		male Wistar rat liver microsomes	10 µM, 3 h, pH 7.4, added: without NADPH		compound consumed	~15%
CC1=N[C@H](C)Cc2c(-c3ccc(C)cc3)ccc(O)c21	metabolic stability	male CD-1 mouse, liver microsomes	1 µM, 30 min		compound remaining	< 7%
OC1(C(F)(F)F)CCN(c2nc(Nc3ccnc(C(F)(F)F)c3)nc(-c3cccc(C(F)(F)F)n3)n2)C1 (stereo not shown)		rat Sprague-Dawley, plasma	0.5, 5 and 50 µM, 6 h		unbound fraction	< 0.005
C[C@@H]1Cc2c([nH]c3ccccc23)[C@@H](c2c(F)cc(/C=C/C(=O)O)cc2F)N1C12CC(C1)C2		Balb/c nude mouse, MCF7 xenograft, tumour	oral, 10 mg/kg, steady state		AUC(0-t)	19500 ng·h/mL
CN(O)C(=O)CCC(=O)NCCCN(CCCCN(CCCNC(=O)CCC(=O)N(C)O)C(=O)CCC(=O)N(C)O)C(=O)CCC(=O)N(C)O.[89Zr]		mouse, heart	4 h		tracer uptake	0.02 %ID/g
CC12CC3CC(C)(C1)CC(NC(=O)Nc1ccc(C(=O)N4CCC[C@H](C(N)=O)C4)cc1F)(C3)C2	equilibrium dialysis	Sprague-Dawley rat, plasma			unbound fraction	0.114
O=C(O)C1CN(Cc2ccc(-c3noc(-c4ccc(OCC[18F])c(C(F)(F)F)c4)n3)cc2)C1	biodistribution	C57BL/6 mouse, sham, liver	2 h		liver uptake	12.5 %ID/g
Cc1ccc(OCC(=O)O)cc1		Sprague-Dawley rat, female, plasma	oral gavage, 30 mg/kg of parent drug		Tmax	48.6 min
C=C(c1ncc(C(=O)O)cn1)c1cc2c(cc1C)C(C)(C)CCC2(C)C		Sprague-Dawley rat, male, plasma	oral, 100 mg/kg, 1 h, sesame oil vehicle		HDL level	74 ± 4 mg/dL
CCCC[C@H](NC(=O)CNC(=O)CNC(=O)CN1CCN(CC(=O)O)CCN(CC(=O)O)CCN(CC(=O)O)CC1)C(=O)N[C@H]1CC(=O)NCCCC[C@@H](C(N)=O)NC(=O)[C@H](Cc2c[nH]c3ccccc23)NC(=O)[C@H](CCCNC(=N)N)NC(=O)[C@@H](Cc2ccccc2)NC(=O)[C@H](Cc2c[nH]cn2)NC1=O [copper-64 labelled]		female C57 mouse, B16/F1 melanoma	intravenous, 0.037 MBq, 4 h	baseline: tumour over kidneys	uptake ratio	0.7
C#CCOc1ccc(/C=C2\SC(=O)N(CC(=O)NCc3ccccc3)C2=O)cc1	inverse Kirkwood-Buff integrals	binary solvent mixture	298.15 K, mole fraction x1 0.70		Kirkwood-Buff integral G1,3	-260 cm³/mol
C=C(c1ccc(C(=O)O)c(F)c1)c1cc2c(cc1C)C(C)(C)C=CC2(C)C		Sprague-Dawley rat, male, plasma	oral, 100 mg/kg, 9 h, sesame oil vehicle		HDL level	59 ± 7 mg/dL
Cc1ccc(/N=N/c2c(O)ccc3ccccc23)c(C)c1		rat whole blood	16.0 µg/L, 30 days, -20 °C, long-term storage		measured concentration	16.1 µg/L
Cc1[nH]nc2c1N=C(c1ccccc1Cl)c1cnc(NCCOCCO)cc1N2		human male, urine	oral, 10 mg, 0-72 h		urinary excretion	0.31 %Dose
Brc1ccccc1-c1nnc(CSc2nnnn2-c2ccccc2)o1		male C57BL/6 mouse, brain	intraperitoneal, 10 mg/kg, 4 h		concentration	56 nM
COc1ccc(NC(=O)[C@H](CCCCN)NC(=O)c2cc(NC(=O)[C@H](CCCCN)NC(=O)c3cc(NC(=O)[C@H](CCCCN)NC(=O)c4cc(NC(=O)[C@@H](N)CCCCN)ccc4OC)ccc3OC)ccc2OC)cc1C(N)=O	UV-vis λmax shift	TBS	pH 7.4, monomer-hexamer, K in M^-5		log association constant	19.3
CCCC[C@@H]1NC(=O)[C@@H](NC(=O)[C@H](CCC(=O)O)NC(=O)CNC(=O)CN2CCN(CC(=O)O)CCN(CC(=O)O)CCN(CC(=O)O)CC2)CCCCNC(=O)C[C@@H](C(N)=O)NC(=O)[C@H](C(C)C)NC(=O)[C@@H]2CCCN2C(=O)[C@H](CCCNC(=N)N)NC(=O)CNC(=O)[C@H](Cc2c[nH]c3ccccc23)NC(=O)[C@H](CCCNC(=N)N)NC(=O)[C@@H](Cc2ccccc2)NC(=O)[C@H](Cc2c[nH]cn2)NC(=O)[C@H](CCC(=O)O)NC1=O [gallium-67 labelled]		C57 mice with B16/F1 melanoma, heart	intravenous, 24 h		tissue uptake	0.14 ± 0.13 %ID/g
N=C(N)NCCC[C@@H]1NC(=O)[C@H](Cc2c[nH]c3ccccc23)NC(=O)[C@@H](CC2CCCCC2)NC(=O)[C@@H]2CCCN2C(=O)[C@@H](NC(=O)CCc2ccccc2)CCCNC1=O		C57BL/6J mice, spinal cord	oral, 1 mg/kg, two-compartment model		apparent central volume (V1/F)	0.05 µg/(ng/g)
COc1cc(OC)cc(C2=C3C(C)=C(I)C(/C=C/c4c[nH]c5ccccc45)=[N+]3[B-](F)(F)n3c(/C=C/c4c[nH]c5ccccc45)c(I)c(C)c32)c1		DMSO			log molar absorptivity	4.39 M⁻¹ cm⁻¹
CCC/C(=C\C1=C(OC)C(=O)c2ccccc2C1=O)C(=O)NOC		human liver S9	1 µM, pH 7.4, metabolism		CLint scaled	1 mL/min/kg
C[C@H](CN(C)Cc1ccccc1)NC(=O)c1ccc(-c2noc(C(F)(F)[18F])n2)cc1	PET	Sprague-Dawley rat, female, hippocampus and cerebellum	intravenous, 60 min	baseline: hippocampus SUV over cerebellum SUV	hippocampus-to-cerebellum ratio	1.76 ± 0.21

Repeated from above:
SMILES	test	system	conditions	scale	endpoint	value
CCC/C(=C\C1=C(F)C(=O)c2ccccc2C1=O)C(=O)N(CC)CC		mouse liver S9	1 µM, phase II UGT conditions		CLint	8.2 mL/min/kg
Brc1ccccc1-c1nnc(CSc2nnnn2-c2ccccc2)o1		male C57BL/6 mouse, brain	intraperitoneal, 10 mg/kg, 4 h		concentration	56 nM
C=C(c1ccc(C(=O)O)c(F)c1)c1cc2c(cc1C)C(C)(C)C=CC2(C)C		Sprague-Dawley rat, male, plasma	oral, 100 mg/kg, 9 h, sesame oil vehicle		HDL level	59 ± 7 mg/dL
Cc1ccc(-c2ccc(-c3cc4sccc4o3)cn2)nc1	TCSPC	dioxane			radiative decay rate constant	0.53 ns⁻¹
